Measured values pooled from the literature.
Numbered parts are unrelated; each lists some results of a single study.
Sequence of UniProt Q13523 (whole entry, looked up): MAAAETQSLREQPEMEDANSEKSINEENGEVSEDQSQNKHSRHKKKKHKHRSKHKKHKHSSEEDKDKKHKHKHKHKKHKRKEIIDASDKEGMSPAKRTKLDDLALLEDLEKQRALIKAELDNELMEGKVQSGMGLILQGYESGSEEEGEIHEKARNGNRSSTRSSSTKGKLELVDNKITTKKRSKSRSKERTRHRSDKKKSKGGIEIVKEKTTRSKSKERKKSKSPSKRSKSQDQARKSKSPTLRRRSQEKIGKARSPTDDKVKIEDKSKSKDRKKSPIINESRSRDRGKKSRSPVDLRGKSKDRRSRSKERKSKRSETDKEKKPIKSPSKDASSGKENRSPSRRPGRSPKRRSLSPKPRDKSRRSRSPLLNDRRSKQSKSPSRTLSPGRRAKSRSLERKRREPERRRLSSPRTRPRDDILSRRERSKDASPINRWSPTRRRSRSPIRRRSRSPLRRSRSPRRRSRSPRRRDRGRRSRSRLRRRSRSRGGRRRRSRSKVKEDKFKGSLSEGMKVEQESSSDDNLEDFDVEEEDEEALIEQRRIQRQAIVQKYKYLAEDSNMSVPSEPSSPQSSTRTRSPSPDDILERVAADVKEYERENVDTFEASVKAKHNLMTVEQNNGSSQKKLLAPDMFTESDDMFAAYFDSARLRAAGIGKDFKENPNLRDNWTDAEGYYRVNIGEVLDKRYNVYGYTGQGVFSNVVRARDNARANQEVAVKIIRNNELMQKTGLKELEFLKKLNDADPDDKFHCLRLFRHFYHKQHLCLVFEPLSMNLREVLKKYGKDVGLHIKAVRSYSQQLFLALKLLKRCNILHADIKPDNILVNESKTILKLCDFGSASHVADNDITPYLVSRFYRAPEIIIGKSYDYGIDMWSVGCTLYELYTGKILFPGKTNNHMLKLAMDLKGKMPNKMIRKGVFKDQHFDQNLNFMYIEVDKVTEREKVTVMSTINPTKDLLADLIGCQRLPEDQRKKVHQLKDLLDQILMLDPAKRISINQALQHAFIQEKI
Sequence of UniProt Q13882 (whole entry, looked up): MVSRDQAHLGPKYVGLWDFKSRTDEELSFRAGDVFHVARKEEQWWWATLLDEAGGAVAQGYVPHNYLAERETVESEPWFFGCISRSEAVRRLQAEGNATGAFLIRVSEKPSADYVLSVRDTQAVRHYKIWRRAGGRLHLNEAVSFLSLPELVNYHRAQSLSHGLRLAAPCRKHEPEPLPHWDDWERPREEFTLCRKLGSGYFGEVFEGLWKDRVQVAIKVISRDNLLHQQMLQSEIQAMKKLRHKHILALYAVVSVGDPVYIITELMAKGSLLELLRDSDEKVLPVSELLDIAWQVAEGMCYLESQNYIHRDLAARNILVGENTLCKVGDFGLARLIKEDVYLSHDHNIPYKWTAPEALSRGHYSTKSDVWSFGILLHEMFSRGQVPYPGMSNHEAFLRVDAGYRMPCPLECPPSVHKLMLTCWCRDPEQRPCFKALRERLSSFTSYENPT
Sequence of UniProt P15056 (whole entry, looked up): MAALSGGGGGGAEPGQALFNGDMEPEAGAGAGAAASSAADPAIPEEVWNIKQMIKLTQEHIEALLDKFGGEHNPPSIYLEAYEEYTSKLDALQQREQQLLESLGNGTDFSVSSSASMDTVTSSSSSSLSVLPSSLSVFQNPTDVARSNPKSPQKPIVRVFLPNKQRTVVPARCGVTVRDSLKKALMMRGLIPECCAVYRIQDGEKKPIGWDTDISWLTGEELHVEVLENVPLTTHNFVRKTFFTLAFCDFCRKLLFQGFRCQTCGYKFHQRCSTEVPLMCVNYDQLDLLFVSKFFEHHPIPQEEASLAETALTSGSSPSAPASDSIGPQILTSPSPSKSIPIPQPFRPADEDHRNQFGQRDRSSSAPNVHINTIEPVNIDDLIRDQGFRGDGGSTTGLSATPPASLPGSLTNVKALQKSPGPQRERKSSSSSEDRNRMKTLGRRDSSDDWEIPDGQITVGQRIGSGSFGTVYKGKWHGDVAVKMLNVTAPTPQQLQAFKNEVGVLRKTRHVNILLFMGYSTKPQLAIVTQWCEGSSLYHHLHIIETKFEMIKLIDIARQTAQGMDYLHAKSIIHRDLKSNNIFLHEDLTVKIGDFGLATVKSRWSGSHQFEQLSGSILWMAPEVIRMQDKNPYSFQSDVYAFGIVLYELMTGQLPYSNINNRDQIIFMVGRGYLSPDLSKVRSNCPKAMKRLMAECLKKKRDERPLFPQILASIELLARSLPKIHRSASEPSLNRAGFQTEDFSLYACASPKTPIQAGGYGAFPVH
Sequence of UniProt P51817 (whole entry, looked up): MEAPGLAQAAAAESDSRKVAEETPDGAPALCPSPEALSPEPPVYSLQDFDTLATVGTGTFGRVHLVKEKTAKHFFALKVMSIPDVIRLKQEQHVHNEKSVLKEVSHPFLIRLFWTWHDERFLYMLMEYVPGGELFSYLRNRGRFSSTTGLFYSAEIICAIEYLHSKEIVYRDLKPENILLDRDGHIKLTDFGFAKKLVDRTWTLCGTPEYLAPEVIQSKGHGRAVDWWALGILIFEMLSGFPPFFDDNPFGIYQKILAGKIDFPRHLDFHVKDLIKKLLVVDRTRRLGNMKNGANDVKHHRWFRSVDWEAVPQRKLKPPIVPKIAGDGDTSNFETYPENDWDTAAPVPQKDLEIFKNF
Sequence of UniProt Q9UM73 (whole entry, unmodified, looked up): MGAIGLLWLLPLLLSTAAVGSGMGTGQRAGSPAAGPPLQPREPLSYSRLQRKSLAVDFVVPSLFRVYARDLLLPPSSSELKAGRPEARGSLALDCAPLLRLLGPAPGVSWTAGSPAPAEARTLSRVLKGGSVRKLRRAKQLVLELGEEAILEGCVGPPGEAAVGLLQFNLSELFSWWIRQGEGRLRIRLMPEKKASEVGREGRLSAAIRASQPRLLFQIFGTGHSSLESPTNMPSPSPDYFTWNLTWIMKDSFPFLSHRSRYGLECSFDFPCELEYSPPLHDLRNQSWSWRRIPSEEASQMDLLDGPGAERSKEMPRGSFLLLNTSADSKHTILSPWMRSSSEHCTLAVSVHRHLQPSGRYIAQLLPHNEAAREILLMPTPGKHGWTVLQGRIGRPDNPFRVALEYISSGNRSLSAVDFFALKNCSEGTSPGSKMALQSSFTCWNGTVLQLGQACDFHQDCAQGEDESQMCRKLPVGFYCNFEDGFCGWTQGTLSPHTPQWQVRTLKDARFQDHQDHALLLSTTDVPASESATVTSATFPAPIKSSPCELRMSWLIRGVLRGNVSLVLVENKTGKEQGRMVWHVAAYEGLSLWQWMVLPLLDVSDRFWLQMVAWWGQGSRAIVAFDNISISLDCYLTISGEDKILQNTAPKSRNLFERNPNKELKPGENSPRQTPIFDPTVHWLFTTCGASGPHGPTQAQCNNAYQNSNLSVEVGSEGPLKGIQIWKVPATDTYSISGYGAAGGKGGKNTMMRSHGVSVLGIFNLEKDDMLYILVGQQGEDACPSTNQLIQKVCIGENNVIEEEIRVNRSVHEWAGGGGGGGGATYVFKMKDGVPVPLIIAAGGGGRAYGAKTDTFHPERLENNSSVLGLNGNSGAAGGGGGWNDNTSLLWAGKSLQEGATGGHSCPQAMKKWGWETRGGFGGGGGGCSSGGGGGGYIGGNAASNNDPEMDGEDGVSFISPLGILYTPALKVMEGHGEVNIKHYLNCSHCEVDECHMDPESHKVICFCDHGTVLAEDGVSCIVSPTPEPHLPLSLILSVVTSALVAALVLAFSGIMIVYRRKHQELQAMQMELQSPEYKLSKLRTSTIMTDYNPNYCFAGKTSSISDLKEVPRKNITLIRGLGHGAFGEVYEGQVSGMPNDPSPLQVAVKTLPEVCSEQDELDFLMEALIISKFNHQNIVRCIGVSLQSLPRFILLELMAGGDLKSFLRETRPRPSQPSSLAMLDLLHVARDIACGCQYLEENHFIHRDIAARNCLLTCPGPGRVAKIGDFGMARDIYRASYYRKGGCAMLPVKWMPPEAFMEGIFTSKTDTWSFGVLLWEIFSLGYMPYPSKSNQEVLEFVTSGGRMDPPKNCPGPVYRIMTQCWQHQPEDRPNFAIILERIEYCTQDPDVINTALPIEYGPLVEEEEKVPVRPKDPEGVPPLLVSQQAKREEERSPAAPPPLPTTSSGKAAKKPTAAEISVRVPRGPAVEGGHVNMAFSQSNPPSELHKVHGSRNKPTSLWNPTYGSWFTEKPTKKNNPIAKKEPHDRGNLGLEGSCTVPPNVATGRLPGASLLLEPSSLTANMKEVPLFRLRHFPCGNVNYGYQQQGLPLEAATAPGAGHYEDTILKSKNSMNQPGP
Sequence of UniProt P51812 (whole entry, looked up): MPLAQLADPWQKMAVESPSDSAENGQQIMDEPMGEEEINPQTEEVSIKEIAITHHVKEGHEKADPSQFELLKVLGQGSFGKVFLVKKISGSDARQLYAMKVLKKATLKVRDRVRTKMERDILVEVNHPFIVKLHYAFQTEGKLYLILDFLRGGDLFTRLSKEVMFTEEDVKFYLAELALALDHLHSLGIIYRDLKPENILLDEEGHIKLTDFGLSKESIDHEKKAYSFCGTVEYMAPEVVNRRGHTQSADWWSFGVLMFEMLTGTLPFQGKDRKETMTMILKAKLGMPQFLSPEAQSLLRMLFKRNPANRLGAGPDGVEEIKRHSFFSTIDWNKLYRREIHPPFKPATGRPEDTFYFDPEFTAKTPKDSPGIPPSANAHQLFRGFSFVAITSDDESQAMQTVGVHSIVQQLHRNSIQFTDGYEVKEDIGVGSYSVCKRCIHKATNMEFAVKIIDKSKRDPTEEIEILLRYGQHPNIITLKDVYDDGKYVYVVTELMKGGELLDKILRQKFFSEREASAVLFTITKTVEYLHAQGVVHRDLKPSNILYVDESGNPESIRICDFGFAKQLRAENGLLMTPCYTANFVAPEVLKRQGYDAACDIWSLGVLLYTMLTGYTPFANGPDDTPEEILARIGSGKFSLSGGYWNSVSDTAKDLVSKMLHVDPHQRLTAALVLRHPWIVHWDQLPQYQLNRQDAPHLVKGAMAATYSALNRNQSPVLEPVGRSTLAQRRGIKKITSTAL

Sample 1
Cell line: Huh-7
Tested at: 10 µM
Time: 24 h
Structure (SMILES)	viability [%]
O=C(O)CCCCCCCC(=O)O	102
Oc1c(Cl)cc(Cl)cc1Sc1cc(Cl)cc(Cl)c1O	87.3
CO[C@]12C[C@@H](COC(=O)c3cncc(Br)c3)CN(C)[C@@H]1Cc1cn(C)c3cccc2c13	97.4
NCCCCCC(=O)O	101

Sample 2
Structure (SMILES): CCC(=N\O)/C(C)=C/c1ccc(F)cc1
Observed: cell-free assay
Technique: competition with immobilised ligand
Tested at: 1 µM
target	remaining binding
Serine/threonine-protein kinase PRP4 homolog (PRPF4B, Homo sapiens, UniProt Q13523)	100%
Protein-tyrosine kinase 6 (PTK6, Homo sapiens, UniProt Q13882)	100%
Serine/threonine-protein kinase PLK3 (PLK3, Homo sapiens, UniProt Q9H4B4)	86%
Serine/threonine-protein kinase 24 (STK24, Homo sapiens, UniProt Q9Y6E0)	100%
Proto-oncogene tyrosine-protein kinase receptor Ret (RET, Homo sapiens, UniProt P07949, V804M)	100%
ALK tyrosine kinase receptor (ALK, Homo sapiens, UniProt Q9UM73, C1156Y)	77%
cAMP-dependent protein kinase catalytic subunit PRKX (PRKX, Homo sapiens, UniProt P51817)	96%
Ribosomal protein S6 kinase alpha-3, C-terminal kinase domain (RPS6KA3, Homo sapiens, UniProt P51812)	100%
Tyrosine-protein kinase Fes/Fps (FES, Homo sapiens, UniProt P07332)	73%
Receptor-interacting serine/threonine-protein kinase 4 (RIPK4, Homo sapiens, UniProt P57078)	83%
Serine/threonine-protein kinase Nek6 (NEK6, Homo sapiens, UniProt Q9HC98)	87%
Tyrosine-protein kinase ABL1, phosphorylated (ABL1, Homo sapiens, UniProt P00519)	66%
Serine/threonine-protein kinase B-raf (BRAF, Homo sapiens, UniProt P15056)	87%

Sample 3
Target: PABPC1L2, full length, GST fusion (mouse, UniProt A0ABA7IW68)
Technique: RNAcompete
Form: RNA
Matrix: in vitro
Tested at: 20 nM
Notes: 7-mer, probes averaged, single round
Reference: mean of 7-mers
Direction: higher = stronger binding
Target sequence (chain): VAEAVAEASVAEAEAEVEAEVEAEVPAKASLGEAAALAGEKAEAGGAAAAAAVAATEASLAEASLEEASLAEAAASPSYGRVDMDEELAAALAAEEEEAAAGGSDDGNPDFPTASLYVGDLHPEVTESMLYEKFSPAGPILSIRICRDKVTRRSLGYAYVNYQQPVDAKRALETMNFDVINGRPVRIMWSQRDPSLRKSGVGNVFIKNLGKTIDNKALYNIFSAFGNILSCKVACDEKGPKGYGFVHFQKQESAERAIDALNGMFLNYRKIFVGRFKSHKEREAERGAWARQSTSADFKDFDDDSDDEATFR
Strand	7-mer Z-score
GUACAAG	-0.0971
CCAGGGC	-0.186
UACCCCU	-0.447
UGCGCGA	-0.255
UGCUAUA	-0.146
AGCAUCU	-0.168
GACGAGU	-0.139
UUCUAGC	-0.347

Mixed results
Substance	target	test	system	conditions	how to read	quantity	value
PhoQ, residues 284 288 289 292 302 303 SCCLKL	PhoP, residues 12 14 15 18 19 LHSVW (Escherichia coli, UniProt P23836)	Sort-seq, item: YFP reporter	E. coli	PhoQ-PhoP variant library, with: 10 µM Mg2+	reference: high Mg2+ state, higher = stronger signaling	fold induction	1.51

A few entries again (sample 3):
Strand	7-mer Z-score
UGCUAUA	-0.146
AGCAUCU	-0.168
GACGAGU	-0.139
